# Measurements pooled from the literature.
# A part holds a random share of what one study measured. “And” joins repeats or separate records; there may be more than shown.

# Set 1
# Compound: CCN1CCN(Cc2ccc(COc3c(-c4c(C)c(F)cc5[nH]ncc45)c(C4CC4)cc4c(N5C[C@@H]6C[C@H]5CN6)nc(OC5CCOCC5)nc34)cc2)C(=O)C1
# Read-out: KRAS-RAF interaction
# Mode: inhibitor
# Technique: TR-FRET
# Added: SOS-mediated nucleotide exchange
# KRAS G12D with RAF: GTPase KRas, with RAF (KRAS, Homo sapiens, UniProt P01116, G12D)
# KRAS with RAF: GTPase KRas, with RAF (KRAS, Homo sapiens, UniProt P01116)
target,conditions,inhibition
KRAS G12D with RAF,30 nM,7.87% and 7.17%
KRAS G12D with RAF,10 µM,100% and 102%
KRAS G12D with RAF,10 nM,-0.772% and 4.2%
KRAS with RAF,100 nM,11.3% and 9.03%
KRAS with RAF,300 nM,58.4%
KRAS with RAF,1 µM,92.8% and 92.7%
KRAS with RAF,3 µM,101%

# Set 2
# Compound: C[C@@H]1CN(c2ccc(-c3cc(C(=O)NCCOCCOCCOCCOCCOCCOCCNC(=O)/C=C/c4[nH]cc(C(=O)N[C@@H](CC(N)=O)c5ccc(F)c(Cl)c5)c4-c4ccc(Cl)cc4F)ccc3F)cc2NC(=O)c2ccc(F)cc2C(F)(F)F)C[C@H](C)N1C
# Read-out: thermal unfolding
# Technique: differential scanning fluorimetry
# Tested at: 5.5 µM
# Direction: higher = more unfolded
# WDR5: WD repeat-containing protein 5 (WDR5, Homo sapiens, UniProt P61964)
# DCAF1: DDB1- and CUL4-associated factor 1 (DCAF1, Homo sapiens, UniProt Q9Y4B6)
# Chain of UniProt Q9Y4B6 (whole entry, looked up): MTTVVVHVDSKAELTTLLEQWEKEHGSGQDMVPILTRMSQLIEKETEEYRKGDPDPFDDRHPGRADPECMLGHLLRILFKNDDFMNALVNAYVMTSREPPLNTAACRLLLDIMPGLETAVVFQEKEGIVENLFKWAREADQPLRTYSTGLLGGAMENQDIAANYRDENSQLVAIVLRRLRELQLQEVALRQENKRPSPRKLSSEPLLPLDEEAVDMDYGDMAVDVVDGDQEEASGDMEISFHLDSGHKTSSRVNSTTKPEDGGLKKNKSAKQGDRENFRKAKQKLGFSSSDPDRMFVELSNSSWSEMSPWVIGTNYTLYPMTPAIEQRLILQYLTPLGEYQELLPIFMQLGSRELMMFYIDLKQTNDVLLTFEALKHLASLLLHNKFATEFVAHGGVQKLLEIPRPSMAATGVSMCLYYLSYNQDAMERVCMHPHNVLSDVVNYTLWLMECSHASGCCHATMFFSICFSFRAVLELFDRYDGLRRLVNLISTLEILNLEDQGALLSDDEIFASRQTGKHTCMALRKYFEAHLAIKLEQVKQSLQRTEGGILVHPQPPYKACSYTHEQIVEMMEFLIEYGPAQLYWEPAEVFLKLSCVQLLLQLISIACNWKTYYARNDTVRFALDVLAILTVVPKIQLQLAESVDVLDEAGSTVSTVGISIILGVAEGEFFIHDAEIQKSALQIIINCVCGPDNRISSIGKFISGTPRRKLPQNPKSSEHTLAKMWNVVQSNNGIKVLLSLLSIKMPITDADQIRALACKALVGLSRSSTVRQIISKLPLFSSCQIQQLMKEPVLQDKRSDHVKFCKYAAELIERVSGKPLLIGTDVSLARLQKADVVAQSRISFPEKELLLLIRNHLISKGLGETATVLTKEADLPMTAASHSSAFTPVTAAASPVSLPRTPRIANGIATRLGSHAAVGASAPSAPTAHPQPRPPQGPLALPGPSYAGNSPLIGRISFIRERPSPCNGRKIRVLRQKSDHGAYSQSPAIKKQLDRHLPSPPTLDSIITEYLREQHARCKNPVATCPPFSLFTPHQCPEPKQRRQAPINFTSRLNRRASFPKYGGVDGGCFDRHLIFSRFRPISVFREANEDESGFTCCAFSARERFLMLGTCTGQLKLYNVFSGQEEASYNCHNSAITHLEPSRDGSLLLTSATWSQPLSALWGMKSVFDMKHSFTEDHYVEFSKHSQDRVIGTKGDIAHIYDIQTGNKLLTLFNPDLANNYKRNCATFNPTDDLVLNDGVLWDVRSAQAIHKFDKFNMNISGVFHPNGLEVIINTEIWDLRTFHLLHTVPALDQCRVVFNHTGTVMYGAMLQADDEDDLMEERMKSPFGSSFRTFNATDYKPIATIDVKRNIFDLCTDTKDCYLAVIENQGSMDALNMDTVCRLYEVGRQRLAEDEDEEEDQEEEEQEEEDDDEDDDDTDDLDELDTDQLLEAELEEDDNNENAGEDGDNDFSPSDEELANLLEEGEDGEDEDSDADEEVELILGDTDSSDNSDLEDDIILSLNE
target,conditions,SYPRO Orange fluorescence
WDR5,72.21 °C,36500 a.u.
WDR5,89.81 °C,55300 a.u.
WDR5,37.2 °C,13800 a.u.
DCAF1,31.2 °C,8770 a.u.
WDR5,34.6 °C,13800 a.u.
WDR5,78.01 °C,60300 a.u.
DCAF1,68.01 °C,50300 a.u.
DCAF1,39.4 °C,11200 a.u.
DCAF1,71.01 °C,47200 a.u.
WDR5,90.21 °C,54800 a.u.
WDR5,54.81 °C,16800 a.u.

# Set 3
# SMILES: CNc1ncc2cc(-c3cc(OC)cc(OC)c3Cl)c(=O)n(CCc3ccc(NC(=O)C(C#N)=CC(C)(C)N4CCOCC4)cc3)c2n1
# Read-out: kinase activity
target,conditions,inhibition
"MUSK (Homo sapiens, UniProt O15146)",1 µM,1%
"SGK2 (Homo sapiens, UniProt Q9HBY8)",1 µM,4%
"NUAK1 (Homo sapiens, UniProt O60285)",1 µM,3%
"PHKG2 (Homo sapiens, UniProt P15735)",1 µM,-1%
"PRKACB (Homo sapiens, UniProt P22694)",0.1 µM,1%
"MKNK1 (Homo sapiens, UniProt Q9BUB5)",1 µM,-2%
"ERBB2 (Homo sapiens, UniProt P04626)",1 µM,-12%
"GRK7 (Homo sapiens, UniProt Q8WTQ7)",0.1 µM,10%
"BLK (Homo sapiens, UniProt P51451)",0.1 µM,-1%
"MST1R (Homo sapiens, UniProt Q04912)",0.1 µM,1%
"PRKCQ (Homo sapiens, UniProt Q04759)",1 µM,4%
"Cyclin-dependent kinase 9, with cyclin T1 (CDK9, Homo sapiens, UniProt P50750)",1 µM,-1%
"FLT1 (Homo sapiens, UniProt P17948)",1 µM,> 90% and 92%

# Set 4
# Target: Cyclin-dependent kinase 12, with cyclin K (CDK12, Homo sapiens, UniProt Q9NYV4)
# Chain of UniProt Q9NYV4 (whole entry, looked up): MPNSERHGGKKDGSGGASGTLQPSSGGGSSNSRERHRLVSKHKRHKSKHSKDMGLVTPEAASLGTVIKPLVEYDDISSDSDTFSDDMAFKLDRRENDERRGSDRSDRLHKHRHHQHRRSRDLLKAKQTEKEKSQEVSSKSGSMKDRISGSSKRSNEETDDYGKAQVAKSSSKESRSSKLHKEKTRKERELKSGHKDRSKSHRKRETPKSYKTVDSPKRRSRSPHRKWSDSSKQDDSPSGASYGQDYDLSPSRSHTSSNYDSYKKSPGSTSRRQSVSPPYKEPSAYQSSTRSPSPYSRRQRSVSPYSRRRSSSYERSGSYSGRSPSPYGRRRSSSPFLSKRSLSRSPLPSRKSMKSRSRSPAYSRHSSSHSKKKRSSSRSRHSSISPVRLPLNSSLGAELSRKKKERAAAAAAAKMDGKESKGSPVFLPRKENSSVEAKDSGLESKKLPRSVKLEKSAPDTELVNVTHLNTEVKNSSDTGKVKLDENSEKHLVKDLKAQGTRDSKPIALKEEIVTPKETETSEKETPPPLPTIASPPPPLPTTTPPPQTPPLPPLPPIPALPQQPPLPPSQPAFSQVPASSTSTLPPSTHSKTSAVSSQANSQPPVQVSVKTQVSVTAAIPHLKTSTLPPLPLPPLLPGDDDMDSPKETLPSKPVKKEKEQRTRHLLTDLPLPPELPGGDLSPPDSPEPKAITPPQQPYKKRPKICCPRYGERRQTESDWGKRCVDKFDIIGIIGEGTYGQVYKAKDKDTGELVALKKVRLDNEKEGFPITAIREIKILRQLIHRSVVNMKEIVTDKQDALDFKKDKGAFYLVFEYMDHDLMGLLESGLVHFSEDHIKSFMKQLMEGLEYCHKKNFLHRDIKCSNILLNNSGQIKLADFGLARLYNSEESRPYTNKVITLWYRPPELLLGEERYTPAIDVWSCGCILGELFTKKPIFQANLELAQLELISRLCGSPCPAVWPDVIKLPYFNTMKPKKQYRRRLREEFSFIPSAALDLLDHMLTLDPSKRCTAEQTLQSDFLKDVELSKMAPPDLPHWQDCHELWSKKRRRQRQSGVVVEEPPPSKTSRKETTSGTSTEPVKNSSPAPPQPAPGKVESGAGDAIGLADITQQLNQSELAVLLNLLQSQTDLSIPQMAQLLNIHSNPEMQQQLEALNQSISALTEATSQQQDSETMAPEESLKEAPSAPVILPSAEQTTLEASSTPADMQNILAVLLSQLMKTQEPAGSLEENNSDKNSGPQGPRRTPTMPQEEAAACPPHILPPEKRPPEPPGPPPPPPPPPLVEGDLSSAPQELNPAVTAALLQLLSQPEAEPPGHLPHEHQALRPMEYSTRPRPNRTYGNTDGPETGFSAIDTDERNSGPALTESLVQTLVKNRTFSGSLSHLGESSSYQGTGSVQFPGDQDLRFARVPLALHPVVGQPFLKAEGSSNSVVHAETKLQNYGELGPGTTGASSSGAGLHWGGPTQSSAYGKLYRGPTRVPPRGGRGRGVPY
# Read-out: kinase activity
# Mode: inhibitor
# Technique: ADP-Glo
# Tested at: 0.0082 µM
SMILES,inhibition [%]
CCn1cnc2c(NCc3nc4cc(F)c(F)cc4[nH]3)nc(N3CCn4ncnc4C3)nc21,10.1
CCn1cnc2c(NCc3nc4cc(Cl)c(Cl)cc4[nH]3)nc(N3CCN(C(=O)c4ccncc4)CC3)nc21,3.7
CCn1cnc2c(NCc3nc4cc(Cl)c(Cl)cc4[nH]3)nc(N3CCN(C(=O)[C@H](C)NC(C)=O)CC3)nc21,-21.6
Cn1cc(-n2cnc3c(NCc4nc5cc(Cl)c(Cl)cc5[nH]4)nc(N4CCNCC4)nc32)cn1,-3.2
CCn1cnc2c(NCc3nc4cc(Cl)c(Cl)cc4[nH]3)nc(N3CCN(c4ccccn4)CC3)nc21,7.4
CCn1cnc2c(NCc3nc4cc(Cl)c(Cl)cc4[nH]3)nc(N3CCN(S(C)(=O)=O)CC3)nc21,0
CCn1cnc2c(NCc3nc4cc(Cl)c(Cl)cc4[nH]3)nc(N3CCC(NC(C)=O)CC3)nc21,2.9
CCn1cnc2c(NCc3nc4cc(Cl)c(Cl)cc4[nH]3)nc(N3CCN(Cc4ccncc4)CC3)nc21,-7.5
CCn1cnc2c(NCc3nc4cc(Cl)c(Cl)cc4[nH]3)nc(N3CCn4ncnc4C3)nc21,22

# Set 5
# Structure (SMILES): CCC1(c2cccc(-c3cn(C)nc3C)c2)C2=C(Nc3n[nH]cc31)C(F)C(C)(C)CC2=O (single isomer, unassigned)
# Tested at: 1 µM
target,test,scale,remaining binding [%]
"ROS1 (Homo sapiens, UniProt P08922)","kinase binding, KINOMEscan",relative to: DMSO control,81
"ACVR1B (Homo sapiens, UniProt P36896)","kinase binding, KINOMEscan",relative to: DMSO control,100
"PRKD1 (Homo sapiens, UniProt Q15139)","kinase binding, KINOMEscan",relative to: DMSO control,99
"Receptor-type tyrosine-protein kinase FLT3, autoinhibited (FLT3, Homo sapiens, UniProt P36888)","binding, competition with immobilised ligand",,100
"WNK4 (Homo sapiens, UniProt Q96J92)","kinase binding, KINOMEscan",relative to: DMSO control,77
"DDR1 (Homo sapiens, UniProt Q08345)","binding, competition with immobilised ligand",,95
"Ribosomal protein S6 kinase alpha-4, C-terminal kinase domain (RPS6KA4, Homo sapiens, UniProt O75676)","kinase binding, KINOMEscan",relative to: DMSO control,100
"Tyrosine-protein kinase ABL1, non-phosphorylated (ABL1, Homo sapiens, UniProt P00519)","binding, competition with immobilised ligand",,67
"LIM domain kinase 1 (LIMK1, Homo sapiens, UniProt P53667)","binding, competition with immobilised ligand",,100
"EGFR (Homo sapiens, UniProt P00533, G719C)","binding, competition with immobilised ligand",,100
"MAP3K15 (Homo sapiens, UniProt Q6ZN16)","kinase binding, KINOMEscan",relative to: DMSO control,90
"MAPKAPK2 (Homo sapiens, UniProt P49137)","kinase binding, KINOMEscan",relative to: DMSO control,100
"NEK2 (Homo sapiens, UniProt P51955)","binding, competition with immobilised ligand",,100

# Set 6
# Compound: Cc1ccc(O)c(C)c1-c1cnc2[nH]c(-c3cnc(N4CCC5(CC4)CC(N4CCN(c6ccc(N[C@H]7CCC(=O)NC7=O)cc6F)CC4)CO5)nc3)cc2c1C#N (single isomer, unassigned)
# PKMYT1: Membrane-associated tyrosine- and threonine-specific cdc2-inhibitory kinase (PKMYT1, Homo sapiens, UniProt Q99640)
# Chain of UniProt Q99640 (whole entry, looked up): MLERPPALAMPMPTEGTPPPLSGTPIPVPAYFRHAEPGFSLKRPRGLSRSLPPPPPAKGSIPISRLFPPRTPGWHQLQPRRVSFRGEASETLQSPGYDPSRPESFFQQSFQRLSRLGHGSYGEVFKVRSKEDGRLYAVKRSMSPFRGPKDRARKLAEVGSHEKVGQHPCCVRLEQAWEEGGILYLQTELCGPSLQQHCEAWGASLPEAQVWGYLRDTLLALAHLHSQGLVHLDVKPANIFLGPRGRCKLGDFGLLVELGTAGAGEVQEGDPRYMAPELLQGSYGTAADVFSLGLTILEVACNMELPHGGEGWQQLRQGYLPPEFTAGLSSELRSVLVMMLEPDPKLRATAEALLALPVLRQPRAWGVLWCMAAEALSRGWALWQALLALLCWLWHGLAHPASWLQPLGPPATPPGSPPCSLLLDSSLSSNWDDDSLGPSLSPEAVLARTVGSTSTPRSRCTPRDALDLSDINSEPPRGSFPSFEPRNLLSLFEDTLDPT
target or system,test,system,conditions,inhibition
HCC1569,"automated capillary immunoblot, measured: CDK1 phospho-Thr14",,"0.15 nM, 24 h",14.9%
KLE,cell proliferation,,13.72 nM,-4.13% and -2.54% and -3.69%
PKMYT1,"enzyme activity, inhibitor",,1.111 µM,100%
PKMYT1,,,1 µM,97.1%
PKMYT1,"enzyme activity, inhibitor",,0.1111 µM,95.9%
,"automated immunoblotting, measured: CDK1 phospho-Thr14","mouse, HCC1569 xenograft, tumour","dose not given, 144 h",63.5% and 54.2% and 43.4% and 47.2% and 48.4% and 36.2%
NCI-H1568,cell proliferation,,1111.11 nM,39.3% and 37.3%
HCC1569,"automated immunoblotting, measured: CDK1 phospho-Thr14",,"concentration not given, 8 h after washout",57.7%
NCI-H1568,cell proliferation,,13.72 nM,4.58% and -0.28% and 4.72%
PKMYT1,,,1.111 µM,99%
PKMYT1,,,1111.11 nM,101% and 98.6%
NCI-H1568,cell growth,,370.37 nM,15.1%

# Set 7
# Structure (SMILES): O=C(Nc1ccccc1)Nc1cccc(Oc2ccc3nccn3n2)c1
# Tested at: 1 µM
target,conditions,remaining activity [%]
"RPS6KA5 (Homo sapiens, UniProt O75582)",kinase domain 1 N-terminal,100
"MAPK8 (Homo sapiens, UniProt P45983)",,100
"PIP4K2B (Homo sapiens, UniProt P78356)",PIP5K2B construct,85
"CDK11B (Homo sapiens, UniProt P21127)",CDC2L1 construct,100
"HASPIN (Homo sapiens, UniProt Q8TF76)",,96
"MAPKAPK2 (Homo sapiens, UniProt P49137)",,100
"CSNK1G1 (Homo sapiens, UniProt Q9HCP0)",,100
"TSSK1B (Homo sapiens, UniProt Q9BXA7)",,100
"NEK4 (Homo sapiens, UniProt P51957)",,100
"PRKCH (Homo sapiens, UniProt P24723)",,100
"ITK (Homo sapiens, UniProt Q08881)",,98
"PRKCE (Homo sapiens, UniProt Q02156)",,100
"AKT1 (Homo sapiens, UniProt P31749)",,68
"WNK1 (Homo sapiens, UniProt Q9H4A3)",,100

# Set 8
# Target: Sodium-dependent neutral amino acid transporter B(0)AT1 (SLC6A19, Homo sapiens, UniProt Q695T7)
# Chain of UniProt Q695T7 (whole entry, looked up): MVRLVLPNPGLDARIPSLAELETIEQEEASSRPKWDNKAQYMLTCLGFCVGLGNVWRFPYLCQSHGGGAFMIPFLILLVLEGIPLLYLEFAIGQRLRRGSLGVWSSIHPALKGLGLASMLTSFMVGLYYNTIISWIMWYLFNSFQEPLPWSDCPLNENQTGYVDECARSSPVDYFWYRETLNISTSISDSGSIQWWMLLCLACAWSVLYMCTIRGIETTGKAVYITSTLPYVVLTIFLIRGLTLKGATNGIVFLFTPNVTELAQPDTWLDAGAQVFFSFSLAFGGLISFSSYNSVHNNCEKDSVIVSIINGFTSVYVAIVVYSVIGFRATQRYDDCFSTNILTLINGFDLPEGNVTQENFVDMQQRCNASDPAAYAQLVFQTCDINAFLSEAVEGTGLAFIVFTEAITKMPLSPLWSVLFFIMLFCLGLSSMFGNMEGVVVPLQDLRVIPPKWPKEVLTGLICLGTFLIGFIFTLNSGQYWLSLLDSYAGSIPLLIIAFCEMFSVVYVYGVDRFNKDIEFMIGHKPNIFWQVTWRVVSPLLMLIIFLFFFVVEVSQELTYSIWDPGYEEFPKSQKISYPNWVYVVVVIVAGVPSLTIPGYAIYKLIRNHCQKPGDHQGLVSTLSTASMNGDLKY
# Mode: inhibitor
# Technique: FLIPR membrane potential
# Cell line: CHO-BC cells
# Tested at: 0.001 µM
# Notes: unit not given
# Relative to: uninhibited cells
Compound,remaining transport activity
CC(C)NC(=O)COc1cccc2ccccc12,0.963
Cc1cc(OCC(=O)NC(C)C)ccc1I,1.07
CC(C)NC(=O)COc1ccc2ccccc2c1,1.04

# Set 9
# SMILES: COc1cc(-c2nc3ccc(C(=O)NCCCN4CCN(c5cccc(C)c5C)CC4)cc3n2C2CCC2)cc(OC)c1OC
# Read-out: binding
# Technique: competition with immobilised ligand
# Tested at: 1 µM
target,remaining binding [%]
"PIK3CA (Homo sapiens, UniProt P42336, H1047Y)",79
"BTK (Homo sapiens, UniProt Q06187)",94
"NTRK1 (Homo sapiens, UniProt P04629)",100
"SRPK3 (Homo sapiens, UniProt Q9UPE1)",100
"Aurora kinase A (AURKA, Homo sapiens, UniProt O14965)",99
"PRKACA (Homo sapiens, UniProt P17612)",94
"CSNK1D (Homo sapiens, UniProt P48730)",100
"TYRO3 (Homo sapiens, UniProt Q06418)",97
"CDK3 (Homo sapiens, UniProt Q00526)",92
"COQ8A (Homo sapiens, UniProt Q8NI60)",95
"MAPK10 (Homo sapiens, UniProt P53779)",83
"OXSR1 (Homo sapiens, UniProt O95747)",90
"NUAK1 (Homo sapiens, UniProt O60285)",100
"CAMK2G (Homo sapiens, UniProt Q13555)",99
"NEK2 (Homo sapiens, UniProt P51955)",93
"BMP2K (Homo sapiens, UniProt Q9NSY1)",99
"TBK1 (Homo sapiens, UniProt Q9UHD2)",99
"Insulin receptor (INSR, Homo sapiens, UniProt P06213)",89

# Single results of other studies
# MPO: Myeloperoxidase (MPO, Homo sapiens, UniProt P05164)
# Chain of UniProt P05164 (whole entry, looked up): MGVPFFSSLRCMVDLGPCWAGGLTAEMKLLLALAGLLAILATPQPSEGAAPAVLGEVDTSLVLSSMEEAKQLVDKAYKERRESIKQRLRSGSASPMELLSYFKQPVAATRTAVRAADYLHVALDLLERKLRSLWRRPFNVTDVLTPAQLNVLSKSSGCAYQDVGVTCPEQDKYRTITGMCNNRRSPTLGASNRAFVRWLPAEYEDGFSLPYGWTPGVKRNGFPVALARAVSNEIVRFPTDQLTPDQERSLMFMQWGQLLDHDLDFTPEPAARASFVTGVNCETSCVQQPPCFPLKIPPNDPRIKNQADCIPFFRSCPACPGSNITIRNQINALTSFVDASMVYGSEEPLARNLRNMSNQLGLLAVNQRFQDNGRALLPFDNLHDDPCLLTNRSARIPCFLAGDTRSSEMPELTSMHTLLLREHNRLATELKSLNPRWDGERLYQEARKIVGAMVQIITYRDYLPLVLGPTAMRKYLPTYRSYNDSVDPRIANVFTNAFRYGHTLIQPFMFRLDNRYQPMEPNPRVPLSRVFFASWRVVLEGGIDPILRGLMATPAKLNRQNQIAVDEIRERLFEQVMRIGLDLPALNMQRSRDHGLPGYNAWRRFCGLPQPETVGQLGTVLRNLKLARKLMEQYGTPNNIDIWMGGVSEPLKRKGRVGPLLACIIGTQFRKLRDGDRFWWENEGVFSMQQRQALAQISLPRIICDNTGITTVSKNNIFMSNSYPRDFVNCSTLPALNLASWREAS
Compound,target or system,test,system,conditions,measurement,result
O=c1[nH]c(=S)n(C[C@H]2CCCO2)c2nc[nH]c12,MPO,enzyme activity,,0.0046 µM,inhibition,-1.03% and -12% and -10.8% and -5.85% and -4.86% and 1.99%
Cc1nc(C)c(C=[N+]([O-])C(C)(C)C)nc1C,,Western blot,MPTP mouse model,10 mg/kg,pSer473-Akt/total Akt,165 and 218 and 105 and 99.6
COc1ccc(Cl)cc1-c1cc(=O)[nH]c(=S)n1CC(N)=O,MPO,"enzyme activity, inhibitor",,10 µM,remaining activity,3.23%
Cc1c[nH]c2c(=O)[nH]c(=S)n(Cc3cc(F)cc(OC/C(=C/F)CN)c3)c12,MPO,"enzyme activity, inhibitor, fluorescence",,,IC50,4 nM
NC/C(=C\F)COc1ccc(C(F)(F)F)c(Cn2c(=S)[nH]c(=O)c3[nH]cnc32)c1,MPO,"enzyme activity, inhibitor, fluorescence",,,IC50,60 nM

# Excerpt of the above (set 5):
target,test,scale,remaining binding [%]
"Tyrosine-protein kinase ABL1, non-phosphorylated (ABL1, Homo sapiens, UniProt P00519)","binding, competition with immobilised ligand",,67
"ACVR1B (Homo sapiens, UniProt P36896)","kinase binding, KINOMEscan",relative to: DMSO control,100
"Ribosomal protein S6 kinase alpha-4, C-terminal kinase domain (RPS6KA4, Homo sapiens, UniProt O75676)","kinase binding, KINOMEscan",relative to: DMSO control,100
"NEK2 (Homo sapiens, UniProt P51955)","binding, competition with immobilised ligand",,100
"DDR1 (Homo sapiens, UniProt Q08345)","binding, competition with immobilised ligand",,95
"MAP3K15 (Homo sapiens, UniProt Q6ZN16)","kinase binding, KINOMEscan",relative to: DMSO control,90
"EGFR (Homo sapiens, UniProt P00533, G719C)","binding, competition with immobilised ligand",,100
"Receptor-type tyrosine-protein kinase FLT3, autoinhibited (FLT3, Homo sapiens, UniProt P36888)","binding, competition with immobilised ligand",,100
"MAPKAPK2 (Homo sapiens, UniProt P49137)","kinase binding, KINOMEscan",relative to: DMSO control,100
"PRKD1 (Homo sapiens, UniProt Q15139)","kinase binding, KINOMEscan",relative to: DMSO control,99
"ROS1 (Homo sapiens, UniProt P08922)","kinase binding, KINOMEscan",relative to: DMSO control,81
"LIM domain kinase 1 (LIMK1, Homo sapiens, UniProt P53667)","binding, competition with immobilised ligand",,100
"WNK4 (Homo sapiens, UniProt Q96J92)","kinase binding, KINOMEscan",relative to: DMSO control,77
